# Experimental data collected from several papers.
# Each numbered part is a random draw from the data of one study; scales do not carry over between parts.
# Chain of UniProt P00519 (whole entry, unmodified, looked up): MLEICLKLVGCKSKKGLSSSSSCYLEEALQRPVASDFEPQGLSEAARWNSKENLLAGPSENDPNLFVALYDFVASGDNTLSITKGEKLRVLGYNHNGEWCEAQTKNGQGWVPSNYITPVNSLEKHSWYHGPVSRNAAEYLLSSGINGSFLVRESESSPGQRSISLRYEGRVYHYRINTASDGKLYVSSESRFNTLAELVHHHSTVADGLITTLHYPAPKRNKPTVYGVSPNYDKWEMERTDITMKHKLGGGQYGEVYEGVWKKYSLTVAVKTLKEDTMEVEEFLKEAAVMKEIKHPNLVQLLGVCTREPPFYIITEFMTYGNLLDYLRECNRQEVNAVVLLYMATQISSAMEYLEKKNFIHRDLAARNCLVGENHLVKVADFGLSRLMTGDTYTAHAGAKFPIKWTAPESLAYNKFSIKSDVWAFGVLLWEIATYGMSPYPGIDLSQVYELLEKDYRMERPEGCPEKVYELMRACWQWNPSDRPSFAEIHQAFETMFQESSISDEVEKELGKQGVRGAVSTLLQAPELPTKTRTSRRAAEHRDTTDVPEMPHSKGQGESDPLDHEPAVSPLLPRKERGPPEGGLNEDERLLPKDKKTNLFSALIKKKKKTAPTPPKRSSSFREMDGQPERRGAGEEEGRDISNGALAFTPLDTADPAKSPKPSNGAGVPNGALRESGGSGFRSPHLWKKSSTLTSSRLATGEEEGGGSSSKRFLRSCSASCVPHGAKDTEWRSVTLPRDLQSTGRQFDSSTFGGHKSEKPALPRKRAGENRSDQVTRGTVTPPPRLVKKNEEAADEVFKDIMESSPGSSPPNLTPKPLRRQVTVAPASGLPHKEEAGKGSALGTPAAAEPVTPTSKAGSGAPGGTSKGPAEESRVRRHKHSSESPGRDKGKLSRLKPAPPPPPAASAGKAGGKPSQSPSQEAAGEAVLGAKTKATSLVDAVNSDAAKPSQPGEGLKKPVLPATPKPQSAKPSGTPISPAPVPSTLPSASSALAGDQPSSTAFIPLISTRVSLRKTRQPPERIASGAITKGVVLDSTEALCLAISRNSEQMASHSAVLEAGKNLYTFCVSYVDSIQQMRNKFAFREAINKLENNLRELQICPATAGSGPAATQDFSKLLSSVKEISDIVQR
# Chain of UniProt Q9Y4K4 (whole entry, looked up): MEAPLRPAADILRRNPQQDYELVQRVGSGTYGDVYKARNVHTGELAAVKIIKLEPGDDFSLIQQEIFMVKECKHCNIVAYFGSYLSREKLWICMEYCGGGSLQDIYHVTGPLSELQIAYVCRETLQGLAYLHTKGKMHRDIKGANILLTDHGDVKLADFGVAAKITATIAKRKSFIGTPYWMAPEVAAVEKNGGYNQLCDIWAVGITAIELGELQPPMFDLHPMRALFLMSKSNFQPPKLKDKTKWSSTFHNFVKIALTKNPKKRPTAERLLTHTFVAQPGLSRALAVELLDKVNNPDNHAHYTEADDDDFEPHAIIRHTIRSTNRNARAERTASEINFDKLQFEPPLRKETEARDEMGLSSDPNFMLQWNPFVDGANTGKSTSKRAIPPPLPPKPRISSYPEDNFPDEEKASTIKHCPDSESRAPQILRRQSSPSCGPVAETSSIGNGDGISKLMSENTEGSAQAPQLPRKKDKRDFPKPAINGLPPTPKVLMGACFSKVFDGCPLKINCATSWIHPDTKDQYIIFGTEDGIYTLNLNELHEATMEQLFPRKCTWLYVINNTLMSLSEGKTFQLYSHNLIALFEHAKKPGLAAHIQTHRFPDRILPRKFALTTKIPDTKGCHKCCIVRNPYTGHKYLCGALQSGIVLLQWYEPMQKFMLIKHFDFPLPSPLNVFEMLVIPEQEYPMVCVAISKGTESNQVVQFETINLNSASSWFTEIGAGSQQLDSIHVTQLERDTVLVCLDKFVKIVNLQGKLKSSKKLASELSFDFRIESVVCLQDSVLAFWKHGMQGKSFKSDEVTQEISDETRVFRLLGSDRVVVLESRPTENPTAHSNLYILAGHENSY
# Chain of UniProt P35968 (whole entry, looked up): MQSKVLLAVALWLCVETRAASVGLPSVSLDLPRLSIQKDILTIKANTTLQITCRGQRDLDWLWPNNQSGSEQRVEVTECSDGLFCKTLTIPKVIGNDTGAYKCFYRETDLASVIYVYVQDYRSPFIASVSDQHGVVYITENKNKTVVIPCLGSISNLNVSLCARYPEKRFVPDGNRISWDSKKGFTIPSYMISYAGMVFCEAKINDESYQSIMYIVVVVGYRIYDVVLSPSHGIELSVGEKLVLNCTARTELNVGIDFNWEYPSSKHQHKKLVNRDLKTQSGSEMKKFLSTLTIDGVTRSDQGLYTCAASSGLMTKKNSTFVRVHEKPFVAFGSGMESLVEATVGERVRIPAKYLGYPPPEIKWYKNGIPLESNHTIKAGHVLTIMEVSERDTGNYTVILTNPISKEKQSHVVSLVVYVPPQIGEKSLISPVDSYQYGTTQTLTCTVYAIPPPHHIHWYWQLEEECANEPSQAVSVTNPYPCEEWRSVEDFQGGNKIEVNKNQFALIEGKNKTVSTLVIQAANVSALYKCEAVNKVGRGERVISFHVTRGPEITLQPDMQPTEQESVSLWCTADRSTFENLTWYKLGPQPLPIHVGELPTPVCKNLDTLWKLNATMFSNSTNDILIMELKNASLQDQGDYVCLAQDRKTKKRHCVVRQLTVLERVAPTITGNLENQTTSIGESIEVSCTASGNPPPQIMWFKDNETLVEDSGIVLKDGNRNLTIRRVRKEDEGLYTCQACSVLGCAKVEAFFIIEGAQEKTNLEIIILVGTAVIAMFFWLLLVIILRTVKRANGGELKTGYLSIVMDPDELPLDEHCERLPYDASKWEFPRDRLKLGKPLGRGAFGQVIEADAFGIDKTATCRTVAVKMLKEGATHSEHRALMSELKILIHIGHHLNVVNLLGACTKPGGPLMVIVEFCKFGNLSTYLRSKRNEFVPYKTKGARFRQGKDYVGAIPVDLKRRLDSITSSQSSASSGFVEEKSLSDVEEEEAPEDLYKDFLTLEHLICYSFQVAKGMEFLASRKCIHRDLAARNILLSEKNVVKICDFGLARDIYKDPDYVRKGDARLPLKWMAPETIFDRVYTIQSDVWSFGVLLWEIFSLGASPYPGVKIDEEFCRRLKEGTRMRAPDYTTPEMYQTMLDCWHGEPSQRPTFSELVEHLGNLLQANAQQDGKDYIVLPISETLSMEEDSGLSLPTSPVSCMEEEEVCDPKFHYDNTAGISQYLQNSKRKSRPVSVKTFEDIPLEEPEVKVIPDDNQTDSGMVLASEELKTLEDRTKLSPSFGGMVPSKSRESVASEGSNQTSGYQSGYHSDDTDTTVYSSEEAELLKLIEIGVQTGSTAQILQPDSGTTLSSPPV
# Chain of UniProt Q02779 (whole entry, looked up): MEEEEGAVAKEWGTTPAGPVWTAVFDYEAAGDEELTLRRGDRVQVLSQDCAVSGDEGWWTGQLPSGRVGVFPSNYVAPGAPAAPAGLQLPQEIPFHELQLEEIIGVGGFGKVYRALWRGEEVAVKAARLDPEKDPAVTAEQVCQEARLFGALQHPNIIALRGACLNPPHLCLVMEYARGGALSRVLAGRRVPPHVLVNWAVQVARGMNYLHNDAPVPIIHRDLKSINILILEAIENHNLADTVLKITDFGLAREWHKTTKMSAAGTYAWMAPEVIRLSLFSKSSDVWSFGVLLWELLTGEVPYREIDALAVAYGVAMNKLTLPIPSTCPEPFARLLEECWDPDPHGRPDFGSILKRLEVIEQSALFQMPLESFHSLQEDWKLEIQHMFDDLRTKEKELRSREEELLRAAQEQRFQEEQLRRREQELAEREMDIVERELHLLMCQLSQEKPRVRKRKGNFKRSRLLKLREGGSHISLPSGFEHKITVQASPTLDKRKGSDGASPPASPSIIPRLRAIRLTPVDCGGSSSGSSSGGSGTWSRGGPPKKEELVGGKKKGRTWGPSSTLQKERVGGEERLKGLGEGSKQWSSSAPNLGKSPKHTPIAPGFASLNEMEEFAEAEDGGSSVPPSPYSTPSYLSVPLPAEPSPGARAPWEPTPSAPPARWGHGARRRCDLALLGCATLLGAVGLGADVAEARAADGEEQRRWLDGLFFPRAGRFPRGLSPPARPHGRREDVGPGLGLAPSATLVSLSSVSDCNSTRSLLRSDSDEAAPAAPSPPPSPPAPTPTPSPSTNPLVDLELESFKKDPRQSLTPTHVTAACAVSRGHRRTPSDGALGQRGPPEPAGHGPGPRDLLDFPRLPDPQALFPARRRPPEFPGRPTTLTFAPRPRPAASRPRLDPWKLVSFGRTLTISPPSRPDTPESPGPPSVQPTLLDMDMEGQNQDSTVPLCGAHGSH
# Chain of UniProt P50750 (whole entry, looked up): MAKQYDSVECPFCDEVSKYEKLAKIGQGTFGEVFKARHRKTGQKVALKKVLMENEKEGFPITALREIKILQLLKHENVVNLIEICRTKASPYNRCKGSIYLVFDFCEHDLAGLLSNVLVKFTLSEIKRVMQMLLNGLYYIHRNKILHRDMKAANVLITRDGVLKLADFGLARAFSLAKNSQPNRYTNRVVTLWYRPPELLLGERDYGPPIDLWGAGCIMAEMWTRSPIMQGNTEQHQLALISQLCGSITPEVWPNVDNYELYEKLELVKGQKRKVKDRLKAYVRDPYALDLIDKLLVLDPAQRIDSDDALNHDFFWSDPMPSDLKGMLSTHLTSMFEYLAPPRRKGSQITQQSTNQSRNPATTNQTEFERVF

# Series 1
# SMILES: CCC(=O)N[C@@H]1CC[C@H](C(=O)N(C)c2ccc(-c3nc4ccccc4o3)cc2)C1
# Technique: competition with immobilised ligand
# Concentration: 1 µM
target,assay,remaining binding
"Tyrosine-protein kinase ABL1, non-phosphorylated (ABL1, Homo sapiens, UniProt P00519, F317I)",binding,76%
"Mitogen-activated protein kinase kinase kinase kinase 5 (MAP4K5, Homo sapiens, UniProt Q9Y4K4)",cell-free assay,91%
"MAP/microtubule affinity-regulating kinase 3 (MARK3, Homo sapiens, UniProt P27448)",cell-free assay,100%
"Tyrosine-protein kinase CSK (CSK, Homo sapiens, UniProt P41240)",cell-free assay,100%
"Mitogen-activated protein kinase kinase kinase 10 (MAP3K10, Homo sapiens, UniProt Q02779)",cell-free assay,78%
"Tyrosine-protein kinase Fgr (FGR, Homo sapiens, UniProt P09769)",cell-free assay,100%
"cAMP-dependent protein kinase catalytic subunit beta (PRKACB, Homo sapiens, UniProt P22694)",cell-free assay,100%
"Phosphatidylinositol 5-phosphate 4-kinase type-2 beta (PIP4K2B, Homo sapiens, UniProt P78356)",cell-free assay,45%
"Tyrosine-protein kinase ABL1, phosphorylated (ABL1, Homo sapiens, UniProt P00519, F317L)",cell-free assay,86%
"Serine/threonine-protein kinase 17A (STK17A, Homo sapiens, UniProt Q9UEE5)",cell-free assay,100%
"Mast/stem cell growth factor receptor Kit (KIT, Homo sapiens, UniProt P10721, L576P)",cell-free assay,100%

# Series 2
# Target: RNA binding protein fox-1 homolog 2, RRM domain, GST-SBP tag (RBFOX2, Homo sapiens, UniProt O43251-10, residues 100-194)
# Technique: RNA Bind-n-Seq
# Molecule type: RNA
# Matrix: in vitro
# Concentration: 365 nM
# Notes: natural RNA segment, single round, ends assumed
# Relative to: no-protein control
# Direction: higher = stronger binding
# Target sequence (chain): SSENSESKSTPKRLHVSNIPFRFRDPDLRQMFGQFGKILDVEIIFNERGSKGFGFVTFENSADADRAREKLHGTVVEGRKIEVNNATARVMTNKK
Oligonucleotide,RBNS enrichment (R)
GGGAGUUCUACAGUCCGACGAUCUGUAGAAGUUGAAAAAUGAUUGCUAUAUUUCAAUGUUUAUUCCCACUCAACAUACUGCCUUCUAAGCUUCCCUUUUUUUGUUCAAAGCAUGAUCUUAAAGAUAUGUUUAAUGGAAUUCUCGGGUGCCAA,1.64
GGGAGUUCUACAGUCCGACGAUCGCUAUAAGCUGCUUCAGAUAUAAAAUUGGUUUAUCUAUAAUGUUUGUUCAUUUAAUAGCUUCUAAAAGGCCUUUUUGUUAUACAGUGCUUUUUUUCUAGUUUUAUGGACUUGGAAUUCUCGGGUGCCAA,0.458
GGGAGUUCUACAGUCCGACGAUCUGGAGAUUCUUCAGACUCGGGGGAGACUGAAUUGGAUGCCUCUCUCAUCCCAGCACACUUCUAAUAGACCCCUUCAGUCACGGAGGGAGUGCCCCAAGGUUGGACAGGCAUGGAAUUCUCGGGUGCCAA,0.284
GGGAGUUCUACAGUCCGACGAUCAGUGGUCUCAUGGCGUGUGGCACAACCCCCCUCCCCAGGGCUCAGCUUAAUGUGCCCUCUCCCCCCAACAACCUGCAGGUUCACAGCACCAGCCACACAGCGGUAGGGAUUGGAAUUCUCGGGUGCCAA,0.467
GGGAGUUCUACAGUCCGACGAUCUUAAUAUGGUCCAAUUGCUUUUCUUUUUAACGUGACAAAAAGAGAAUAAGGAACAAACACUAUUGCUGCCGAAUGCCAUAACACUGAGUUGUACAAAUUGUGAUUGAGGAUGGAAUUCUCGGGUGCCAA,1.39
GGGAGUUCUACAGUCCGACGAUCGUCCCUGUGUUUGAGCCUCCAGGGAGAAGGGUUUGGGCUGCAUUCUUCUUAUCCCCAUGCACAGAAACGCUCAGGGUCCCCACGUGCCUGUUGUCCUCCCCUCUAGUCCUUGGAAUUCUCGGGUGCCAA,1.05
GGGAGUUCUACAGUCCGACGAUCGUGGAGCAUUUCCUGAAAGGCUUGAAUGAGCUGGUUCCUGAGAACCUCCUGGCUAUUUUUGAUGAGAAUGAGCUUGAGCUGCUGAUGUGUGGGACUGGAGACAUCAAUGUUGGAAUUCUCGGGUGCCAA,4.25
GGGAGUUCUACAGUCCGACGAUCGUAGAGUGCAUUCCGGUGUGGGUGCCAAUGAACUAGCUGCGAGCUGCUGUCAGAGUGGGAGCAGACUCAUCAGCCUUGGCAGAGAAAGAGUGCCCUUCAGGCUGUCAGGUUGGAAUUCUCGGGUGCCAA,0.464

# Series 3
# Compound: O=C1NC(=O)C(c2c[nH]c3ccccc23)=C1c1c[nH]c2ccccc12
# Observed: enzyme activity
# Action: inhibitor
# Concentration: 0.5 µM
# Relative to: control
target,remaining activity
"RAC-beta serine/threonine-protein kinase (AKT2, Homo sapiens, UniProt P31751)",102%
"Tyrosine-protein kinase TXK (TXK, Homo sapiens, UniProt P42681)",101%
"Calcium/calmodulin-dependent protein kinase type IV (CAMK4, Homo sapiens, UniProt Q16566)",100%
"Misshapen-like kinase 1 (MINK1, Homo sapiens, UniProt Q8N4C8)",83.4%
"Cyclin-dependent kinase 1, with cyclin A (CDK1, Homo sapiens, UniProt P06493)",96.3%
"G protein-coupled receptor kinase 4 (GRK4, Homo sapiens, UniProt P32298)",97.1%
"Cyclin-dependent kinase 9, with cyclin K (CDK9, Homo sapiens, UniProt P50750)",80%
"Calcium/calmodulin-dependent protein kinase type 1B (PNCK, Homo sapiens, UniProt Q6P2M8)",93.3%
"Serine/threonine-protein kinase Nek3 (NEK3, Homo sapiens, UniProt P51956)",88.2%
"Serine/threonine-protein kinase PLK3 (PLK3, Homo sapiens, UniProt Q9H4B4)",99.9%
"Ribosomal protein S6 kinase alpha-4 (RPS6KA4, Homo sapiens, UniProt O75676)",87.4%
"Vascular endothelial growth factor receptor 2 (KDR, Homo sapiens, UniProt P35968)",60.8%
"MAP/microtubule affinity-regulating kinase 4 (MARK4, Homo sapiens, UniProt Q96L34)",95.3%

# Series 4
# Target: Protein C-ets-1 (ETS1, Homo sapiens, UniProt P14921, residues 1-441, full length assumed)
# Chain of UniProt P14921 (whole entry, looked up): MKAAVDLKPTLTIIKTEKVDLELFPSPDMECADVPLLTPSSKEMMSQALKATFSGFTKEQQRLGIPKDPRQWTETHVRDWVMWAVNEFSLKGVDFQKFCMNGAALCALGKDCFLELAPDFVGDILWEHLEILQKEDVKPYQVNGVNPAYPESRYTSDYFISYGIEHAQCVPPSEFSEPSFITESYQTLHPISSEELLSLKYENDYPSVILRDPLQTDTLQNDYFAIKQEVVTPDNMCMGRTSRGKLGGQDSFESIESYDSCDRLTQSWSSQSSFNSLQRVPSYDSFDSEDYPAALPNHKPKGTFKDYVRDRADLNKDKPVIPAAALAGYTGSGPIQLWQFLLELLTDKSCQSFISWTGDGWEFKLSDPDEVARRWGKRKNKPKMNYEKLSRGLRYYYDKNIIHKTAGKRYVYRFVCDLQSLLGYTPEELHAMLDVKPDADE
# Technique: protein-binding microarray
# Molecule type: double-stranded DNA, one strand shown
# Matrix: in vitro
# Concentration: not given
# Notes: k-mer, scored over probes, only values ≥0.25
# Direction: higher = stronger binding
Oligonucleotide,E-score
CCCCCCGG,0.315
CCGATACA,0.278
AGACCGGG,0.259
ACATCCTG,0.474
ACGGAACT,0.386
GTCGGAAA,0.402
CAAACGGA,0.28
ACATCCCT,0.278

# A few entries again (series 2):
Oligonucleotide,RBNS enrichment (R)
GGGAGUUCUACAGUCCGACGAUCUUAAUAUGGUCCAAUUGCUUUUCUUUUUAACGUGACAAAAAGAGAAUAAGGAACAAACACUAUUGCUGCCGAAUGCCAUAACACUGAGUUGUACAAAUUGUGAUUGAGGAUGGAAUUCUCGGGUGCCAA,1.39
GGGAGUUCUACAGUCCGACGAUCGUCCCUGUGUUUGAGCCUCCAGGGAGAAGGGUUUGGGCUGCAUUCUUCUUAUCCCCAUGCACAGAAACGCUCAGGGUCCCCACGUGCCUGUUGUCCUCCCCUCUAGUCCUUGGAAUUCUCGGGUGCCAA,1.05
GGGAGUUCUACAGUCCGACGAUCGUGGAGCAUUUCCUGAAAGGCUUGAAUGAGCUGGUUCCUGAGAACCUCCUGGCUAUUUUUGAUGAGAAUGAGCUUGAGCUGCUGAUGUGUGGGACUGGAGACAUCAAUGUUGGAAUUCUCGGGUGCCAA,4.25
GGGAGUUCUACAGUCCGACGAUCGUAGAGUGCAUUCCGGUGUGGGUGCCAAUGAACUAGCUGCGAGCUGCUGUCAGAGUGGGAGCAGACUCAUCAGCCUUGGCAGAGAAAGAGUGCCCUUCAGGCUGUCAGGUUGGAAUUCUCGGGUGCCAA,0.464
